Measurements collected from several papers.
± gives the spread as reported. Values after ≈ are worked out from the molar mass of the structure shown.
Organism: Staphylococcus aureus

Compound	assay	system	conditions	how to read	endpoint	result
CC(C)CNCc1cc(N(C)C)c2c(c1O)C(=O)C1=C(O)[C@]3(O)C(=O)C(C(N)=O)=C(O)[C@@H](N(C)C)[C@@H]3C[C@@H]1C2	–	MRSA 5 tetM, mouse thigh infection model	sc, 20 mg/kg, 24 h	relative to: untreated control	log10 CFU change	3.11 log10
COc1cc(NC(=O)CSc2nc3ccccc3c(=O)n2-c2ccc(S(N)(=O)=O)cc2)cc(OC)c1OC	microbial growth, well diffusion	MRSA	500 µg/mL, 24 h	–	inhibition zone	12 mm
CC[C@H](C)[C@H](NC(=O)[C@H](CCCCN)NC(=O)[C@H](CC(N)=O)NC(=O)[C@H](Cc1c[nH]c2ccccc12)NC(=O)[C@H](Cc1ccccc1)NC(=O)[C@H](CCCCN)NC(=O)[C@H](CCCCNC(=N)N)NC(=O)[C@H](CC(C)C)NC(=O)[C@H](Cc1c[nH]c2ccccc12)NC(=O)[C@H](CCCCN)NC(=O)[C@H](CCCCNC(=N)N)NC(=O)[C@H](CC(C)C)NC(=O)CNC(C)=O)C(=O)N[C@@H](CCCCN)C(=O)N[C@@H](CCCCNC(=N)N)C(N)=O	–	–	12 h, with: plasma pretreatment	relative to: MIC without plasma pretreatment	MIC fold increase	2 fold
COc1ccc2c3c(oc2c1CC=C(C)C)-c1cc(CC=C(C)C)c(O)cc1OC3	–	ATCC 25923	concentration not given	–	antibacterial activity	inactive
O=C(CCc1cc(O)c(O)c(O)c1)NCCCCCCCCCC[P+](c1ccccc1)(c1ccccc1)c1ccccc1	–	XU212	MIC, 1 h	–	K+ release	2.13 ± 0.17 µg/mL
CC(=O)[O-].O.[Cu+2].[O-]c1ccc(Br)cc1C=NCCN1CCOCC1	–	–	20 µL of 100 µM per disc	–	inhibition zone diameter	18 mm
O=[N+]([O-])c1ccc2c(c1)C=[N+]1N3C(=[O+][Cu-2]1([Cl])[O]2)c1ccccc1NC3c1cc([N+](=O)[O-])ccc1O (stereo not drawn)	respiratory activity, MTT	ATCC 29213	0.5 × MIC	–	inhibition	90.2%
CC(C)C[C@H](NC(=O)[C@H](CC(N)=O)NC(=O)[C@H](CCCNC(=N)N)NC(=O)[C@@H](CC(C)C)NC(=O)[C@H](Cc1ccc(-c2ccccc2)cc1)NC(=O)[C@H](CC(=O)O)NC(=O)[C@H](CCCCN)NC(=O)[C@@H](CC(C)C)NC(=O)[C@H](CCCNC(=N)N)NC(=O)[C@H](CCC(N)=O)NC(=O)[C@@H](NC(=O)[C@@H](CC(C)C)NC(=O)[C@H](CCCNC(=N)N)NC(=O)[C@H](CCCCN)NC(=O)[C@H](Cc1ccc(-c2ccccc2)cc1)NC(=O)CN)C(C)C)C(=O)N[C@H](C(N)=O)C(C)C	bacterial growth	USA300	1 × MIC, 24 h	–	lag time before regrowth	~15 h
Cn1c(SCCN2CCCC2)nnc1C12CC3CC(CC(C3)C1)C2	–	IFO 3060	200 µg/disc, 24 h, 37 °C	–	inhibition zone diameter	16 mm
CN(C)c1cc(CNCCC(C)(C)C)c(O)c2c1C[C@H]1C[C@H]3[C@H](N(C)C)C(O)=C(C(N)=O)C(=O)[C@@]3(O)C(O)=C1C2=O	microbial growth, broth dilution	–	–	–	MIC	1 µg/mL (≈ 1.75 µM)
COC(=O)[C@H](Cc1cnc(C23CC4CC(CC(C4)C2)C3)[nH]1)NC(=O)[C@H](Cc1c[nH]c2ccccc12)NC(=O)[C@@H](N)Cc1cnc(C23CC4CC(CC(C4)C2)C3)[nH]1	–	–	–	–	IC50	8.76 µg/mL
Cc1csc(NCc2cc(N(C)C)c3c(c2O)C(=O)C2=C(O)[C@]4(O)C(=O)C(C(N)=O)=C(O)[C@@H](N(C)C)[C@@H]4C[C@@H]2C3)n1	microbial growth, broth dilution	–	–	–	MIC	4 µg/mL (≈ 6.85 µM)
CCc1cccc(NC(=O)CSc2nc3ccccc3c(=O)n2-c2ccc(S(N)(=O)=O)cc2)c1	microbial growth, well diffusion	ATCC29213	500 µg/mL, 24 h	–	inhibition zone	12 mm
CC(C)C[C@H](NC(=O)[C@H](CCCCN)NC(=O)[C@H](CCCNC(=N)N)NC(=O)[C@@H](CC(C)C)NC(=O)[C@H](Cc1c[nH]c2ccccc12)NC(=O)[C@H](CC(=O)O)NC(=O)[C@H](CCCCN)NC(=O)[C@@H](CC(C)C)NC(=O)[C@H](CCCNC(=N)N)NC(=O)[C@H](CCC(N)=O)NC(=O)[C@@H](NC(=O)[C@@H](CC(C)C)NC(=O)[C@H](CCCNC(=N)N)NC(=O)[C@H](CCCCN)NC(=O)[C@H](Cc1ccc(C(C)(C)C)cc1)NC(=O)CN)C(C)C)C(=O)N[C@H](C(N)=O)C(C)C	biofilm disruption, XTT	USA300	24 h, 24 h preformed biofilm, TSB	–	minimum antibiofilm concentration	3.1 µM
CC[P+](CC)(CC)[Au-][S+](C[C@H]1O[C@H](O[C@H]2O[C@H](COC(C)=O)[C@@H](OC(C)=O)[C@H](OC(C)=O)[C@H]2OC(C)=O)[C@H](OC(C)=O)[C@@H](OC(C)=O)[C@@H]1OC(C)=O)[Au-][P+](CC)(CC)CC.[Cl-]	broth microdilution	JE2 USA300	–	–	MBC	0.006 µM
CCCCCCCCCC1CC2CCCC3CC(CCCCCCCCC)NC(=N1)N23 (stereo not drawn)	bacterial growth	MRSA ATCC 33591	–	–	IC50	3.1 µM
CN[C@H](CC(C)C)C(=O)N[C@H]1C(=O)N[C@@H](CC(N)=O)C(=O)N[C@H]2C(=O)N[C@H]3C(=O)N[C@H](C(=O)N[C@H](C(=O)O)c4cc(O)cc(O)c4-c4cc3ccc4O)[C@H](O)c3ccc(c(Cl)c3)Oc3cc2cc(c3O[C@@H]2O[C@H](CO)[C@@H](O)[C@H](O)[C@H]2O[C@H]2C[C@](C)(NCc3ccc(C(=O)OCCCCCCN(Cc4ccccn4)Cc4ccccn4)cc3)[C@H](O)[C@H](C)O2)Oc2ccc(cc2Cl)[C@H]1O	–	MRSA exponential phase	2 and 4 × MIC, 12 h	–	viable count reduction	5.4 log CFU/mL

Compound	assay	system	conditions	how to read	endpoint	result
c1ccc(CSc2nnc(C34CC5CC(CC(C5)C3)C4)n2-c2ccccc2)cc1	–	IFO 3060	200 µg/disc, 24 h, 37 °C	–	inhibition zone diameter	13 mm
CNC(CC(C)C)C(=O)NC1C(=O)NC(CC(N)=O)C(=O)NC2C(=O)NC3C(=O)NC(C(=O)NC(C(=O)O)c4cc(O)cc(O)c4-c4cc3ccc4O)C(O)c3ccc(c(Cl)c3)Oc3cc2cc(c3OC2OC(CO)C(O)C(O)C2OC2CC(C)(NC(=O)CCCCCC[N+](C)(C)C)C(O)C(C)O2)Oc2ccc(cc2Cl)C1O (stereo not drawn)	agar dilution	MRSA5	–	relative to: vancomycin, higher = more active	MIC fold improvement	8 fold
CN(C)c1cc(CN2CCc3ccccc3C2)c(O)c2c1C[C@H]1C[C@H]3[C@H](N(C)C)C(O)=C(C(N)=O)C(=O)[C@@]3(O)C(O)=C1C2=O	–	MRSA 5, Tet M, mouse serum	–	relative to: no serum	MIC shift in serum	> 7 dilutions
CN1/C(=C/C=C/c2cc(-c3ccccc3)cc(-c3ccccc3)[o+]2)C(C)(C)c2ccccc21	protein synthesis	NCTC 8325	with: reserpine 20 µg/mL	–	IC50	0.39 µg/mL
CCCCCCCCCC(=O)N[C@@H](Cc1c[nH]c2ccccc12)C(=O)N[C@H](CC(N)=O)C(=O)N[C@@H](CC(=O)O)C(=O)N[C@@H]1C(=O)NCC(=O)N[C@@H](CCCN)C(=O)N[C@@H](CC(=O)O)C(=O)N[C@H](C)C(=O)N[C@@H](CC(=O)O)C(=O)NCC(=O)N[C@H](CO)C(=O)N[C@@H]([C@H](C)CC(=O)O)C(=O)N[C@@H](CC(=O)c2ccccc2N)C(=O)O[C@@H]1C	–	MRSA biofilm, porous glass beads	no gel	–	MBEC	64 µg/mL
O=C1c2ccccc2NC(c2ccc(O)c(O)c2)N1/N=C/c1ccc(O)c(O)c1 (stereo not drawn)	respiratory activity, MTT	ATCC 29213	0.5 × MIC	–	inhibition	90.1%
CCCCCCCCCC(=O)N[C@@H](Cc1c[nH]c2ccccc12)C(=O)N[C@H](CC(N)=O)C(=O)N[C@@H](CC(=O)O)C(=O)N[C@@H]1C(=O)NCC(=O)N[C@@H](CCCN)C(=O)N[C@@H](CC(=O)O)C(=O)N[C@H](C)C(=O)N[C@@H](CC(=O)O)C(=O)NCC(=O)N[C@H](CO)C(=O)N[C@@H]([C@H](C)CC(=O)O)C(=O)N[C@@H](CC(=O)c2ccccc2N)C(=O)O[C@@H]1C	XTT	MRSA ATCC BAA-1556	2 x MIC	relative to: untreated	biofilm reduction	~48%
CC(C)C[C@H](NC(=O)[C@H](CC(N)=O)NC(=O)[C@H](CCCNC(=N)N)NC(=O)[C@@H](CC(C)C)NC(=O)[C@H](Cc1ccc(-c2ccccc2)cc1)NC(=O)[C@H](CC(=O)O)NC(=O)[C@H](CCCCN)NC(=O)[C@@H](CC(C)C)NC(=O)[C@H](CCCNC(=N)N)NC(=O)[C@H](CCC(N)=O)NC(=O)[C@@H](NC(=O)[C@@H](CC(C)C)NC(=O)[C@H](CCCNC(=N)N)NC(=O)[C@H](CCCCN)NC(=O)[C@H](Cc1ccc(-c2ccccc2)cc1)NC(=O)CN)C(C)C)C(=O)N[C@H](C(N)=O)C(C)C	preformed biofilm disruption, XTT	USA300 LAC	16 µM, 24 h, 100% MHB	–	remaining viable bacteria	~30%
O=C(O)CN1C(=O)/C(=C/c2ccc(-c3ccc(N(c4ccccc4)c4ccccc4)cc3)cc2)NC1=S	broth microdilution	ATCC 43300	–	–	MBC/MIC ratio	2
CCCCCCCCCCCCCC(=O)N[C@@H](CCCNC(=N)N)C(=O)N[C@@H](CCCNC(=N)N)C(=O)N[C@@H](CCCNC(=N)N)C(N)=O	XTT	USA300	1.56 µM, 24 h biofilm, with: daptomycin 3.12 µM	–	biofilm eradication	~95%
CN(C)c1cc(CN2CCCCCC2)c(O)c2c1C[C@H]1C[C@H]3[C@H](N(C)C)C(O)=C(C(N)=O)C(=O)[C@@]3(O)C(O)=C1C2=O	–	RN4250, Tet K efflux	–	–	MIC	1 µg/mL (≈ 1.76 µM)
COc1ccccc1C(=O)Oc1cccccc1=O	time-kill	ATCC 29213	16 x MIC80, 24 h	–	reduction in viable count	2 log10 CFU
CCCCCCCCCC1N=C(N)N=C(N)N1c1ccccc1C.Cl (racemic)	broth microdilution	ATCC 11632	with: 7.4 mg/mL thymidine	–	MIC90	8 µM
C[C@H]1COc2c(N3CCN(C)CC3)c(F)cc3c(=O)c(C(=O)N[C@@H](CCCNC(=N)N)C(=O)N[C@@H](Cc4ccc(-c5ccccc5)cc4)C(=O)N[C@@H](CCCNC(=N)N)C(=O)N[C@@H](Cc4ccc(-c5ccccc5)cc4)C(=O)N[C@@H](CCCNC(=N)N)C(N)=O)cn1c23	broth microdilution	ATCC BAA-44	–	relative to: MIC of unconjugated components	fold MIC improvement	2.5 to 3.25 fold
NS(=O)(=O)c1ccc(-n2c(SCC(=O)Nc3ccc([N+](=O)[O-])cc3[N+](=O)[O-])nc3ccccc3c2=O)cc1	microbial growth, well diffusion	MRSA	500 µg/mL, 24 h	–	inhibition zone	23 mm
Cc1cc(=O)oc2cc3c(c(C)c12)C(=O)c1c(O)cccc1C3=O	–	MTCC 96	100 µg/disc	–	zone of inhibition	< 8 mm
